Results from different studies.
Lines come from different studies, so protocols differ.
rep main protease: Replicase polyprotein 1ab, main protease (rep, Severe acute respiratory syndrome coronavirus 2, UniProt P0DTD1)

Compound	target or system	assay	test system	setting	how to read	measurement	result
CC[C@H](C)[C@H](NC(=O)[C@H](CC(C)C)NC(=O)[C@H](Cc1c[nH]c2ccccc12)NC(=O)[C@H](CCC(N)=O)NC(=O)[C@@H](NC(=O)[C@H](Cc1ccccc1)NC(=O)[C@H](C)NC(=O)[C@H](CCCCNC(=O)COCCOCCNC(=O)COCCOCCNC(=O)CC[C@H](NC(=O)CCCCCCCCCCCCCCCCCCC(=O)O)C(=O)O)NC(=O)[C@H](CCC(N)=O)NC(=O)[C@H](C)NC(=O)[C@@H](NC(=O)[C@H](CCCCN)NC(=O)[C@H](CC(=O)O)NC(=O)[C@H](CC(C)C)NC(=O)C(C)(C)NC(=O)[C@@H](NC(=O)[C@H](CO)NC(=O)[C@H](Cc1ccc(O)cc1)NC(=O)[C@H](CC(=O)O)NC(=O)[C@H](CO)NC(=O)[C@@H](NC(=O)[C@H](Cc1ccccc1)NC(=O)[C@@H](NC(=O)CNC(=O)[C@H](CCC(=O)O)NC(=O)C(C)(C)NC(=O)[C@@H](N)Cc1ccc(O)cc1)[C@@H](C)O)[C@@H](C)O)[C@@H](C)CC)[C@@H](C)CC)C(C)C)C(=O)N[C@@H](C)C(=O)NCC(=O)NCC(=O)N1CCC[C@H]1C(=O)N[C@@H](CO)C(=O)N[C@@H](CO)C(=O)NCC(=O)N[C@@H](C)C(=O)N1CCC[C@H]1C(=O)N1CCC[C@H]1C(=O)N1CCC[C@H]1C(=O)N[C@@H](CO)C(N)=O	–	–	healthy subjects, single ascending dose	2.5 mg, day 29	relative to: baseline	systolic blood pressure change	2.58 mmHg
Cc1cc(C)c(CNC(=O)c2cc(Cl)c3c(c2C)O[C@@](C)([C@H]2CC[C@H](N(C)C)CC2)O3)c(=O)[nH]1	–	–	human, relapsed/refractory NHL	concentration not given, treatment-related TEAEs, grade 5	–	COVID-19 pneumonia incidence	0%
CNC(=O)[C@@H](NC(=O)[C@H](CC(C)C)[C@H](O)C(=O)NO)C(C)(C)C	Daboia russelii venom proteases (SVMP)	protease activity, inhibitor	KL population	100 µM, added: azocasein substrate	relative to: venom alone	remaining activity	0%
Cn1cnc(Cn2c(=O)[nH]/c(=N\c3cc4cn(C)nc4cc3Cl)n(Cc3cc(F)c(F)cc3F)c2=O)n1	–	–	human, normal renal function, plasma	oral, 375 mg single dose, 3 h	–	unbound fraction	0.013
CC(C)(C)[C@H](NC(=O)C(F)(F)F)C(=O)N1C[C@H]2[C@@H]([C@H]1C(=O)N[C@H](C#N)C[C@@H]1CCNC1=O)C2(C)C	–	–	human, fasted	oral, 150 mg single dose, 28 days, no ritonavir	–	participants with related adverse events	0%
Cl[TeH]1(Cl)(Cl)OCCO1	rep main protease	reporter gene (mKate2), inhibitor	–	20 µM	–	inhibition	-0.178%
CC[C@H](C)[C@H](NC(=O)[C@H](C)NC(=O)[C@H](CCC(=O)O)NC(=O)[C@H](CCC(=O)O)NC(=O)[C@H](CC(C)C)NC(=O)[C@H](CCCCN)NC(=O)[C@H](CCCCN)NC(=O)[C@H](CCSC)NC(=O)[C@H](CCC(=O)O)NC(=O)[C@H](Cc1ccc(O)cc1)NC(=O)[C@H](CCC(=O)O)NC(=O)[C@H](CC(C)C)NC(=O)[C@H](CC(=O)O)NC(=O)[C@H](CC(C)C)NC(=O)[C@H](Cc1ccccc1)NC(=O)[C@@H](NC(=O)[C@@H](NC(=O)[C@H](CC(N)=O)NC(=O)[C@@H](NC(=O)[C@H](CCC(N)=O)NC(=O)[C@H](CC(=O)O)NC(=O)[C@H](CC(C)C)NC(=O)[C@@H](N)CO)[C@@H](C)CC)C(C)C)[C@@H](C)O)C(=O)N[C@@H](CCCCN)C(=O)N[C@@H](CCCCN)C(=O)N[C@@H](CC(C)C)C(=O)N[C@@H](CCC(=O)O)C(=O)N[C@@H](CCC(=O)O)C(=O)N[C@@H](CO)C(=O)N[C@@H](Cc1ccc(O)cc1)C(=O)N[C@H](C(=O)N[C@@H](CC(=O)O)C(=O)N[C@@H](CC(C)C)C(=O)N[C@@H](CCCCN)C(=O)N[C@@H](CCC(=O)O)C(=O)N[C@@H](CC(C)C)C(=O)NCC(=O)N[C@@H](CO)C(=O)NCC(=O)N[C@@H](CO)C(=O)NCC(=O)NCCOCCOCCOCCOCCC(=O)N[C@@H](CSCC(=O)O[C@H]1CC[C@@]2(C)C(=CC[C@H]3[C@@H]4CC[C@H]([C@H](C)CCCC(C)C)[C@@]4(C)CC[C@@H]32)C1)C(N)=O)[C@@H](C)CC	SARS-CoV-2	pseudovirus infection	–	concentration not given, 4 °C, storage	–	fold reduction of activity	~44 fold
CC[C@H](C)[C@H](NC(=O)[C@H](CC(C)C)NC(=O)[C@H](Cc1c[nH]c2ccccc12)NC(=O)[C@H](CCC(N)=O)NC(=O)[C@@H](NC(=O)[C@H](Cc1ccccc1)NC(=O)[C@H](C)NC(=O)[C@H](CCCCNC(=O)COCCOCCNC(=O)COCCOCCNC(=O)CC[C@H](NC(=O)CCCCCCCCCCCCCCCCCCC(=O)O)C(=O)O)NC(=O)[C@H](CCC(N)=O)NC(=O)[C@H](C)NC(=O)[C@@H](NC(=O)[C@H](CCCCN)NC(=O)[C@H](CC(=O)O)NC(=O)[C@H](CC(C)C)NC(=O)C(C)(C)NC(=O)[C@@H](NC(=O)[C@H](CO)NC(=O)[C@H](Cc1ccc(O)cc1)NC(=O)[C@H](CC(=O)O)NC(=O)[C@H](CO)NC(=O)[C@@H](NC(=O)[C@H](Cc1ccccc1)NC(=O)[C@@H](NC(=O)CNC(=O)[C@H](CCC(=O)O)NC(=O)C(C)(C)NC(=O)[C@@H](N)Cc1ccc(O)cc1)[C@@H](C)O)[C@@H](C)O)[C@@H](C)CC)[C@@H](C)CC)C(C)C)C(=O)N[C@@H](C)C(=O)NCC(=O)NCC(=O)N1CCC[C@H]1C(=O)N[C@@H](CO)C(=O)N[C@@H](CO)C(=O)NCC(=O)N[C@@H](C)C(=O)N1CCC[C@H]1C(=O)N1CCC[C@H]1C(=O)N1CCC[C@H]1C(=O)N[C@@H](CO)C(N)=O	–	–	human	subcutaneous, 10.0 mg once weekly, week 15, multiple doses	–	Vz/F	7.23 L
Nc1ncnc2c([C@@H]3N[C@H](CO)[C@@H](O)[C@H]3O)c[nH]c12	Marburg virus	surface glycoprotein expression	HeLa, Musoke	25 µM, 24 h	–	inhibition	52.5%
CC[C@H](C)[C@H](NC(=O)[C@H](CC(C)C)NC(=O)[C@H](Cc1c[nH]c2ccccc12)NC(=O)[C@H](CCC(N)=O)NC(=O)[C@@H](NC(=O)[C@H](Cc1ccccc1)NC(=O)[C@H](C)NC(=O)[C@H](CCCCNC(=O)COCCOCCNC(=O)COCCOCCNC(=O)CC[C@H](NC(=O)CCCCCCCCCCCCCCCCCCC(=O)O)C(=O)O)NC(=O)[C@H](CCC(N)=O)NC(=O)[C@H](C)NC(=O)[C@@H](NC(=O)[C@H](CCCCN)NC(=O)[C@H](CC(=O)O)NC(=O)[C@H](CC(C)C)NC(=O)C(C)(C)NC(=O)[C@@H](NC(=O)[C@H](CO)NC(=O)[C@H](Cc1ccc(O)cc1)NC(=O)[C@H](CC(=O)O)NC(=O)[C@H](CO)NC(=O)[C@@H](NC(=O)[C@H](Cc1ccccc1)NC(=O)[C@@H](NC(=O)CNC(=O)[C@H](CCC(=O)O)NC(=O)C(C)(C)NC(=O)[C@@H](N)Cc1ccc(O)cc1)[C@@H](C)O)[C@@H](C)O)[C@@H](C)CC)[C@@H](C)CC)C(C)C)C(=O)N[C@@H](C)C(=O)NCC(=O)NCC(=O)N1CCC[C@H]1C(=O)N[C@@H](CO)C(=O)N[C@@H](CO)C(=O)NCC(=O)N[C@@H](C)C(=O)N1CCC[C@H]1C(=O)N1CCC[C@H]1C(=O)N1CCC[C@H]1C(=O)N[C@@H](CO)C(N)=O	–	–	human, normal renal function, plasma	subcutaneous, 5 mg single dose, geometric mean	–	half-life	121 h
CC(C)C[C@H](NC(=O)[C@H](CC(C)C)NC(=O)[C@H](CCCCN)NC(=O)[C@H](CCCCN)NC(=O)[C@H](CCCCN)NC(=O)[C@H](CC(C)C)NC(=O)[C@H](CC(C)C)NC(=O)[C@H](CC(C)C)NC(=O)CNC(=O)[C@H](CC(C)C)NC(=O)[C@H](CCCCN)NC(=O)[C@H](CCCCN)NC(=O)[C@@H](N)CC(C)C)C(=O)O	HEK-293T	cell death	–	24 h, 10% cell death	–	lowest cytotoxic concentration	256 µg/mL
CC(C)[C@H](O)C(=O)N[C@@H](C)C(=O)N[C@@H]1C(=O)N(C)c2ccccc2-c2ccccc21	rep main protease	viral replication, mKate2 reporter	SARS-CoV-2	20 µM	–	inhibition	-0.475%

A few entries again:
Compound	target or system	assay	test system	setting	how to read	measurement	result
CNC(=O)[C@@H](NC(=O)[C@H](CC(C)C)[C@H](O)C(=O)NO)C(C)(C)C	Daboia russelii venom proteases (SVMP)	protease activity, inhibitor	KL population	100 µM, added: azocasein substrate	relative to: venom alone	remaining activity	0%
Cn1cnc(Cn2c(=O)[nH]/c(=N\c3cc4cn(C)nc4cc3Cl)n(Cc3cc(F)c(F)cc3F)c2=O)n1	–	–	human, normal renal function, plasma	oral, 375 mg single dose, 3 h	–	unbound fraction	0.013
